Experimental data gathered from unrelated publications.
Protocols differ between the studies behind these lines.
Target: Wee1-like protein kinase 2 (WEE2, Homo sapiens, UniProt P0C1S8)

The remaining binding of COc1cc(Nc2nccc(-c3cnn4nc(OC)ccc34)n2)cc(C(F)(F)F)c1 is reported as 98% (binding, competition with immobilised ligand; 1 µM).
Under “activity vs control”, CNC(=O)C[C@H](Cc1ccc(C#N)cc1)NC(=O)c1cc(-c2ccc(CN[C@H](C)c3ccc(C)cc3)o2)ccc1Cl is recorded as 94% (enzyme activity, inhibitor; 1 µM).
With Nc1ncc2c(n1)-c1c([nH]c3ccc(C4=CCOCC4)cc13)CCC2 the remaining binding was 100% (binding, competition with immobilised ligand; 1 µM).
For COc1cc(Nc2nc(C)cc(-c3cnn4nc(OC)ccc34)n2)cc(C(F)(F)F)c1, the remaining binding was 100% (binding, competition with immobilised ligand; 1 µM).
The remaining binding of CCN1CCN(Cc2ccc(NC(=O)c3ccc(C)c(NC(=O)c4cncc(-c5cnn(C)c5)c4)c3)cc2C(F)(F)F)CC1 is reported as 100% (binding, competition with immobilised ligand; 1 µM).
C=CC(=O)N1CCc2ccc(-n3c(=O)ccc4cnc5ccc(-c6cnn(C)c6)cc5c43)cc21 has a remaining binding of 100% (KINOMEscan; 1 µM; reference: DMSO control).
With CNC1C[S+]2CC[S+]3CC[S+](C1)[Ru-4]321([N]=C=S)[n]2c3ccc(OC)cc3c3c4c(c5cc(F)c[n+]1c5c32)C(=O)NC4=O (centres unmarked) the remaining binding was 91% (KinomeScan; 0.1 µM; reference: untreated).
With CN1CC[C@@H](COc2cnc(C#N)cc2-c2ccn3nc(NC(=O)C4CC4)cc3c2)C1 the inhibition was -14% (enzyme activity, inhibitor; 1 µM).
With CNC(=O)C1CCN(c2cc(C)c(F)cc2NC(=O)c2ccc(-c3cc(O)ccc3C)c(C)c2)CC1 the remaining binding was 100% (binding, competition with immobilised ligand; 1 µM).
The remaining binding of Cc1ccc(-c2c(/C=C(\C#N)C(=O)NC(C)C)n(CCCO)c3ncnc(N)c23)cc1 is reported as 100% (cell-free assay, competition with immobilised ligand; 1 µM).
Cc1ccc(C(=O)Nc2ccc(CN3CCN(C)CC3)c(C(F)(F)F)c2)cc1C#Cc1cnc2cccnn12 has a Hill slope of 0.0532 (target engagement, NanoBRET; human cells).
For C=CC(=O)N1CCCC(n2c(=O)c3ncccc3n(Cc3ccc(Oc4ccccc4)cc3)c2=O)C1 (centres unmarked), the remaining binding was 100% (cell-free assay, competition with immobilised ligand; 1 µM).
With Cc1cnc2nc1Nc1cccc(c1)COC/C=C/COCc1cc(ccc1OCCN1CCOCC1)N2 the remaining binding was 49% (binding, competition with immobilised ligand; 0.1 µM).
Under “activity vs control”, O=C(Cc1ccc(OCc2ccccc2)cc1)NC1(C(=O)O)CCN(C(=O)c2ccc(-c3cccc(Cl)c3)cc2)CC1 is recorded as 108% (enzyme activity, inhibitor; 10 µM).
For CC(C)=CC1OC(C)(C)C2C=C3C(=O)C(Cl)=CC(O)C3C3C(O)C4OC4C(=O)C132 (centres unmarked), the remaining binding was 92% (cell-free assay, competition with immobilised ligand; 10 µM).
CCN1CCN(Cc2ccc(C(=O)Nc3ccc(C)c(NCc4cnc5[nH]ccc5c4OC)c3)cc2C(F)(F)F)CC1 gave a remaining binding of 72% (binding, competition with immobilised ligand; 1 µM).
COc1c(Cl)cccc1Nc1c(-c2ccncc2C#C[C@@]2(C)CCCN2C(=O)/C=C/CN(C)C)[nH]c2c1C(=O)NCC2 gave a remaining binding of 100% (binding, competition with immobilised ligand; 3 µM).
